Experimental data of several laboratories.
Each numbered part is a random draw from the data of one study; scales do not carry over between parts. Substitutions count along the parent as printed.

Sample 1
Target: CCNB3, cyclin fold, Cln2 fusion (human)
Technique: yeast growth competition, sequencing
Medium: yeast
Notes: weak parent motif
Relative to: not given
Direction: higher = stronger binding
Parent: RB1 docking peptide (human); PKPLKKLRFDIEG; partner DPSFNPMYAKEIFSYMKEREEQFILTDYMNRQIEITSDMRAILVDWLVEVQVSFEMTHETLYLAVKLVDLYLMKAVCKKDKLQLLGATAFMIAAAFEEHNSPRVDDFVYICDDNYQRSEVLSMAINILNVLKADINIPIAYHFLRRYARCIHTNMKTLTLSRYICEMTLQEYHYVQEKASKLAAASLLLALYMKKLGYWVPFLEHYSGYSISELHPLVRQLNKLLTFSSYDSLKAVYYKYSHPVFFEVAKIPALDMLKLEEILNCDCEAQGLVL
Substitution	normalised enrichment score
L4H	-0.327
L4D	0.745
K5T	0.0886
D10V	0.345
F9N	0.549
L7K	0.207
E12M	-0.0548
K5N	-0.128
K6A	0.445
K5F	0.549
L4A	0.291
L7R	0.461
D10M	0.534
L7E	-0.0875
K6F	0.0103

Sample 2
Target: Hepatocyte nuclear factor 3-alpha (Foxa1, Mus musculus, UniProt P35582, residues 1-468, full length assumed)
Technique: EMSA with sequencing
Molecule type: double-stranded DNA, one strand shown
Medium: in vitro
Concentration: 10 and 20 nM
Notes: whole designed probe, mean of two concentrations, ends assumed
Relative to: negative control set to 0
Direction: higher = stronger binding
Shared flanks, not repeated: GTGAGCGGTGCCCATTGATGGGGAAC … TTTCACTGGGATCGTGGGGAC
Residues (chain): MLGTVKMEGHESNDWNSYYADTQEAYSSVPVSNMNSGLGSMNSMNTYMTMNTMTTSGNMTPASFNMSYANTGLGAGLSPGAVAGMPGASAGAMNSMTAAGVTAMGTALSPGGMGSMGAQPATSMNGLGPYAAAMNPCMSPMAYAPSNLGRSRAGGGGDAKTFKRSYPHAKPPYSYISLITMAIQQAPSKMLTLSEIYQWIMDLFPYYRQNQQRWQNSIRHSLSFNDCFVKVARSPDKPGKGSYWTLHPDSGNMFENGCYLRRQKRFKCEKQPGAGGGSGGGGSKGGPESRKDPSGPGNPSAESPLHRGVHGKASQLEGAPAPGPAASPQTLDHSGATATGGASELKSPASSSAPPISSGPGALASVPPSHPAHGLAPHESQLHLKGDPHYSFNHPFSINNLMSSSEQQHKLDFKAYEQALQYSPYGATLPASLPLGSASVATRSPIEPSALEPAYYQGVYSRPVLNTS
Oligonucleotide	normalised bound fraction [ratio]
GTGAGAAAGAAAATATAAAAGAGCTGAGTCAAATCTGGAGTCAATAAAGGTTTGTAGTTCTTCAAACAAGAACCCTTGCTCTGAATTCTAAAAGTAATTTACAGACATGCTGAAAAAATATTTCATTTTATGAAAGGTTCTGCACCAAAGCCTTTTACAAAAACAGTCTACAAAACCTACTAAACATCCTGTT	0.0356
ATCTTCCCCCTCTTCCTTGCCCCACCAGCTCACCTTCCCGGGTTATTTGCAGATAGGAAAATAAATGCCGAGAACATTCGTTAACCCTCTTCTGGCGCAAACTGCTGTTTGCTCTGGATGAATCATGGTCCTTTGGCGACGCCAGGCTCCGGGAGAGCAAAGCACCGTGTCAGGGCCATGATCCGGGGTGGCC	0.199
TTATGATCTGAGTATATATAGTAAGTACCTCCCCTTTCAGGGTAAGGCAGTAGGTAATGGTGAAAAGGTGACAGGGAAGCAACTCAGGTTGAGTAAACAACACCAAGCATATCTGACTCAAGGAATGCTTCAGAGGCCAGGGGTGCATGCCTGTAATCCCAGCACCTTGGAAGGCTGACACAGGAGGATCACT	0.403
GACAAACACATCTAGCTCCTAGCATGACTTCAGTGTGAAAAGGCTGGGCTTGGGAGAGCAGCAGGTAGACATGCCTATTAACATTGTGCTGCCATGTTTACTTTTTTTTTGTTTACTTAAATCATGGACAGAAAGCCAAGTGTATAAGTGAAAACCCAAGGGACAATGACATGGGGTAGACTGCAGACCAAGA	0.528
ATCTTCCCCCTCTTCCTTGCCCCACCAGCTCACCTTCCCGGGTATCTGCAAATAAGTATTTATTTTCAAGCCGGCATTCGTTAACCCTCTTCTGGCGCAAACTGCCAGAGCAAACAGATCTAACATGGTCCTTTGGCGACGCCAGGCTCCGGGAGAGCAAAGCACCGTGTCAGGGCCATGATCCGGGGTGGCC	0.242

Sample 3
Target: Histone acetyltransferase KAT6A, winged helix 2, GST fusion (KAT6A, Homo sapiens, UniProt Q92794, residues 85-181)
Technique: protein binding microarray
Molecule type: double-stranded DNA, one strand shown
Medium: in vitro
Concentration: not given
Notes: 8-mer, flanks averaged, mean of 2 arrays, mostly near background
Relative to: not given
Direction: higher = stronger binding
Construct (chain): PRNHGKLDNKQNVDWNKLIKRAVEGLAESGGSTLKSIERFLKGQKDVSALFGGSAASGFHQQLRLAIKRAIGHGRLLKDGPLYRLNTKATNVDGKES
Oligonucleotide	E-score
AGCGTAAT	-0.099
TGCGCGAA	0.282
GCCCCCGC	0.256
AATAATCG	-0.0163
CGGATGGC	0.197
TCACTGCA	0.172
CACTAATA	0.13
AGCTTAAT	0.0681
CCGGGTTC	0.22
AGGAAGTA	-0.0732
ACATCGCT	-0.0477
AGTATACA	-0.0106
CCCTTGCG	-0.0836
AAGAGAGT	-0.171
AGACCGCT	0.0658
AATCAACT	0.0997
AATCCTAC	-0.127
CAACCATC	0.0359

Sample 4
Target: ABI1, truncated, D143A, DHFR fusion (Arabidopsis thaliana)
Technique: DHFR PCA, deep sequencing
Medium: yeast
Notes: methotrexate growth selection, single substitutions
With: (+)-ABA 2500 µM
Relative to: wild-type fitted maximum
Direction: higher = stronger binding
Parent: PYL1, truncated, DHFR fusion (Arabidopsis thaliana); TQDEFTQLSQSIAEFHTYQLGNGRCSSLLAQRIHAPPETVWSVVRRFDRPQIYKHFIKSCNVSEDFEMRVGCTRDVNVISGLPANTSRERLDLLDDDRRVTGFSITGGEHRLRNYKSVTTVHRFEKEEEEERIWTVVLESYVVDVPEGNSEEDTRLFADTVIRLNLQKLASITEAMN
Substitution	relative binding score
S9N	107%
D159A	84.5%
N114C	91.6%
V43E	74.5%
N22K	103%
I52G	91.8%
L28H	87.1%
R99Y	106%
E64D	97.5%
T1A	101%
S117F	-3.05%
L156V	97.8%
T6M	108%
Y141R	2.08%
F66P	91.7%
V44K	64.4%
L8E	88.2%
N149T	89.1%
N77L	94.4%
N22W	99.1%
L93G	79.1%
E67C	95.4%
P83W	32%
R32M	90.4%
N61D	94.8%

Repeated from above (sample 4):
Substitution	relative binding score
L28H	87.1%
R99Y	106%
E64D	97.5%
T1A	101%
S117F	-3.05%
